Assay results of several laboratories.
Protocols differ between the studies behind these lines. Numbers after ± are the reported error.
Sequence of UniProt Q9CPV9 (whole entry, looked up): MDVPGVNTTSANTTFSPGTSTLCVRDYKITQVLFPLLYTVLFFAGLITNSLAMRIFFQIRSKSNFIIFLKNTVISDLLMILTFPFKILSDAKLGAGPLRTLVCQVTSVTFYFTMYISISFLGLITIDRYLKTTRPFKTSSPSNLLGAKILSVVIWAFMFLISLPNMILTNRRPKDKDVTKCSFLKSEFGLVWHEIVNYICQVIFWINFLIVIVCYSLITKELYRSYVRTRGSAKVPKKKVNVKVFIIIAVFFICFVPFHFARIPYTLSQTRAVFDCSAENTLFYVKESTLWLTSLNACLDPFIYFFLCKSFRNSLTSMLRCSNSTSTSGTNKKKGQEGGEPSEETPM
Sequence of UniProt P20813 (whole entry, looked up): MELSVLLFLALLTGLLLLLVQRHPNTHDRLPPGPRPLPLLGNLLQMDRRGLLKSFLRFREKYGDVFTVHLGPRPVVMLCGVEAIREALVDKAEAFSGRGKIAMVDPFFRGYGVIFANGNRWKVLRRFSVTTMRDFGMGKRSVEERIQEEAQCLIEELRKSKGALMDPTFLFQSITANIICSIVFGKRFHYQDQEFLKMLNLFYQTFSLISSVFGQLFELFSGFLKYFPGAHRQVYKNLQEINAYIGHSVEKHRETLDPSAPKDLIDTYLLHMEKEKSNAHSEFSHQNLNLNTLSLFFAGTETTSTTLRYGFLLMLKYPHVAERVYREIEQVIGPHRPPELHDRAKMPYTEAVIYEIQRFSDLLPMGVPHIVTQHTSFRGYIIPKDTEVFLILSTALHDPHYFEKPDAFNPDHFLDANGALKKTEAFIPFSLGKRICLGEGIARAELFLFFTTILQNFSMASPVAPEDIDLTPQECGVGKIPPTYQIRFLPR

CC12CC(O)C3CC1(OC1OC(CO)C(O)C(O)C1O)C3(COC(=O)c1ccccc1)C(=O)O2 (stereo not drawn)  conversion (Staphylococcus aureus; rat gut microbiota; 12 h, anaerobic, SD rat microbiota 100%): 47.5%
N#C[C@@H]1CCCN1C(=O)CNC(=O)c1ccnc2ccc(OCCCN3CCN(C(=O)CCc4ccc5c(c4)CN4CCN(Cc6cc(CCC(=O)O)ccc6O)CC(=O)[O][Al-]([18F])([O]C(=O)C4)[O]5)CC3)cc12 (stereo partly drawn)  tracer uptake (U-87 MG tumour model; host not given, tumour; 1 h, tumour-bearing): 17.5 %ID/g
COc1cc2c(CCNC(C)=O)c[nH]c2cc1OS(=O)(=O)O  plasma concentration (Abcg2 (mouse); FVB/N wild-type lactating female mice; intravenous, 10 mg/kg melatonin, 30 min): 1920 ± 610 ng/mL
CC(=O)O[C@@H]1[C@@H](OC(C)=O)[C@H](Sc2sc(C(=O)c3ccc(Br)cc3)c(N)c2-c2nc3ccccc3s2)OC[C@H]1OC(C)=O  non-toxic concentration (FRhK-4; 72 h): 100 µg/mL
[64Cu+2].c1ccc(CNCc2ccc(CN3CCCN4CCNCCCN(CC4)CC3)cc2)nc1  tissue uptake (CXCR4; NOD/SCID mouse, U87 and U87-stb-CXCR4 xenografts, stomach; iv, 90 min, no blocking dose, ex vivo): 1.82 ± 0.22 %ID/g
CC(=O)OC[C@H]1O[C@@H](Sc2sc(C(=O)c3ccc(Cl)cc3)c(N)c2-c2nc3ccccc3s2)[C@H](OC(C)=O)[C@@H](OC(C)=O)[C@H]1OC(C)=O  maximum non-toxic concentration (BGM; cytotoxicity; 72 h): 80 µg/mL
COc1ccc(CNc2nc(N3CCC[C@H]3CO)ncc2C(=O)NNC(=O)c2cnc(N3CCC[C@H]3CO)nc2NCc2ccc(OC)c(Cl)c2)cc1Cl  revertants relative to solvent (Salmonella typhimurium; TA98, TA100, TA1535, TA102, TA97a; 62.5 to 1000 µg/plate, 48 h, with and without S9; relative to: solvent control): ≤ 2
[64Cu+2].c1cnc(CNCc2ccc(CN3CCCN4CCNCCCN(CC4)CC3)cc2)nc1  tissue uptake (CXCR4; NOD/SCID mouse, U87 and U87-stb-CXCR4 xenografts, kidney; iv, 60 min, ex vivo): 31.1 ± 2.62 %ID/g
C[C@H]1NSc2nc(=O)c3[nH]ccc3n2Cc2ccc(Cl)cc21  exposure ratio (rat, male, plasma; 125 mg/kg; relative to: rat over human 5 mg): not detected
Cc1ccc(/N=N/c2c(O)ccc3ccccc23)c(C)c1  measured concentration (extracted rat blood QC samples; 0.2 µg/L, 2 h, room temperature, short-term stability): 0.213 µg/L
N#Cc1cc(C(=O)OCC[18F])c(C(F)(F)F)nc1N1CCN(C(=O)Cc2ccccc2)CC1  peak SUV (P2Y purinoceptor 12 (P2ry12, Mus musculus, UniProt Q9CPV9); PET; young mouse, 6 weeks, brain; 11.1 MBq, 1.25 min): 2.01 ± 0.31
CCCCCCCCCCCCCCCC[n+]1ccn(Cc2ccccc2)c1C  EC50 (Trypanosoma cruzi; parasite growth, imaging; U2OS; 72 h, intracellular, amastigote): 560 nM
C=CC(=O)Nc1cc(Nc2nccc(-c3cn(C)c4ccccc34)n2)c(OCC(F)(F)F)nc1N(C)CCN(C)C  activity vs control (Cytochrome P450 2B6 (CYP2B6, Homo sapiens, UniProt P20813); enzyme activity, inhibitor; human, liver microsomes; 1 µM): 95.2%
C#CCOc1ccc(/C=C2\SC(=O)N(CC(=O)NCc3ccccc3)C2=O)cc1  standard Gibbs energy of solution (water; 298.15 K): 8.37 kcal/mol
CCCCCCCCCCCC(=O)NCCC(=O)N[C@H](CCCNC(=N)N)C(=O)N[C@H](CCCNC(=N)N)C(=O)N[C@H](CCCNC(=N)N)C(=O)N[C@H](CCCNC(=N)N)C(=O)N[C@H](CCCNC(=N)N)C(=O)N[C@@H](CCCNC(=N)N)C(=O)N[C@@H](CCCNC(=N)N)C(=O)N[C@@H](CCCNC(=N)N)C(=O)N[C@@H](CCCNC(=N)N)C(=O)N[C@@H](CCCCNC(=S)Nc1ccc2c(c1)C(=O)OC21c2ccc(O)cc2Oc2cc(O)ccc21)C(N)=O  peak area (Jurkat; RP-HPLC fluorescence, item: intact peptide; culture medium; 6 h): 29.1%

A few entries again:
Cc1ccc(/N=N/c2c(O)ccc3ccccc23)c(C)c1  measured concentration (extracted rat blood QC samples; 0.2 µg/L, 2 h, room temperature, short-term stability): 0.213 µg/L
